Results collected from several papers.
Every numbered part comes from another study and shows a few of its results, in no order.
Chain of UniProt P51955 (whole entry, looked up): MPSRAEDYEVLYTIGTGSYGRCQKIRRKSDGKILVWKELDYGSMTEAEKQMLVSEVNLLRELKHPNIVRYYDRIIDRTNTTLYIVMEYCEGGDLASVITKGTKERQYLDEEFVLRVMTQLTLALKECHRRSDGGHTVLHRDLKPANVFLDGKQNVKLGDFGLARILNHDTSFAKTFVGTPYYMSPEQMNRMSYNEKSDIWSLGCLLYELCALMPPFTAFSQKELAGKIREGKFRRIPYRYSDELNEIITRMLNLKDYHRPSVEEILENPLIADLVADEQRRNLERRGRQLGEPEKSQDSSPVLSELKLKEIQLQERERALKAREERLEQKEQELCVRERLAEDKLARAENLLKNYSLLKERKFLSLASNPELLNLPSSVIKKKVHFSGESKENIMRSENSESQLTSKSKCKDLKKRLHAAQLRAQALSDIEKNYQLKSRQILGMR
Chain of UniProt Q00535 (whole entry, looked up): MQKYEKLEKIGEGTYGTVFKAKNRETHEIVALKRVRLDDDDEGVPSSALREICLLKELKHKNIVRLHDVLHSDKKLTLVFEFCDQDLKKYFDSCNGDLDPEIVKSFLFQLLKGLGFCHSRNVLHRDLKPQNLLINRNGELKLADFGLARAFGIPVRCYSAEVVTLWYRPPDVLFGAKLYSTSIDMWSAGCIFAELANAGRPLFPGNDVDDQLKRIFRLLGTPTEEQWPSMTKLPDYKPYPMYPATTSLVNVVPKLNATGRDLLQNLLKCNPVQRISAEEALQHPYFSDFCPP
Chain of UniProt P46734 (whole entry, looked up): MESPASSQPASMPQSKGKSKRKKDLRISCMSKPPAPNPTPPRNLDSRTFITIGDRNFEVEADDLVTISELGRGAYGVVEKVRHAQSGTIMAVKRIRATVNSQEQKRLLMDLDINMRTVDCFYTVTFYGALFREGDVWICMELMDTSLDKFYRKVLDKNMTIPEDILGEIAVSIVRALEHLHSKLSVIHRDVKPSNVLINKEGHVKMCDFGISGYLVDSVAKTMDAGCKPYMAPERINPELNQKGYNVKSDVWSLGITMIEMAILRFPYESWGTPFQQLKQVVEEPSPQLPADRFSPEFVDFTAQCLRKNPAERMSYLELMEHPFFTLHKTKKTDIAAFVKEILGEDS
Chain of UniProt Q9BXA7 (whole entry, looked up): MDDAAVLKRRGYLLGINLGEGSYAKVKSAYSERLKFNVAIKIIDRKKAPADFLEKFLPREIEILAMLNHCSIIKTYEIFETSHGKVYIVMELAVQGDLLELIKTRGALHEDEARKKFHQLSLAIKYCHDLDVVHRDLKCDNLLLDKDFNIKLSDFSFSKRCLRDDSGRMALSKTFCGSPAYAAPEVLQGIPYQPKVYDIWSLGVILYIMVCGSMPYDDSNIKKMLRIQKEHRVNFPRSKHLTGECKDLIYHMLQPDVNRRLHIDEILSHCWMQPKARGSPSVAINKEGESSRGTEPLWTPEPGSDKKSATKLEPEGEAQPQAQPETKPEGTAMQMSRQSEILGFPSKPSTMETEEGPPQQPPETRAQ
Chain of UniProt O96017 (whole entry, looked up): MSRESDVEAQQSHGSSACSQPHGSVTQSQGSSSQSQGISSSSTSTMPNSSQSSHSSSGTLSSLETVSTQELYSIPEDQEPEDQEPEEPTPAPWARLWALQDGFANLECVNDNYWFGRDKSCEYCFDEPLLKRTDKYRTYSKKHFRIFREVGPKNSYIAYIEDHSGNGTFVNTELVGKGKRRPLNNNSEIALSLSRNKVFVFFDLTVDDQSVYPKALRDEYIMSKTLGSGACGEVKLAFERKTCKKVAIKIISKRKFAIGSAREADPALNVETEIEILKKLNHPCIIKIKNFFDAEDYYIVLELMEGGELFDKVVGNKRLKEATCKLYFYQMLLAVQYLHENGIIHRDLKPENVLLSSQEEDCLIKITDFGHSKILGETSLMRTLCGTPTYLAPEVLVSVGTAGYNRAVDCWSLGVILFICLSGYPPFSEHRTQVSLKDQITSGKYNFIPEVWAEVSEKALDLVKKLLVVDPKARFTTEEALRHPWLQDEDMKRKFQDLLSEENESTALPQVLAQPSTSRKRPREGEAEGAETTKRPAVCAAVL
Chain of UniProt O95747 (whole entry, looked up): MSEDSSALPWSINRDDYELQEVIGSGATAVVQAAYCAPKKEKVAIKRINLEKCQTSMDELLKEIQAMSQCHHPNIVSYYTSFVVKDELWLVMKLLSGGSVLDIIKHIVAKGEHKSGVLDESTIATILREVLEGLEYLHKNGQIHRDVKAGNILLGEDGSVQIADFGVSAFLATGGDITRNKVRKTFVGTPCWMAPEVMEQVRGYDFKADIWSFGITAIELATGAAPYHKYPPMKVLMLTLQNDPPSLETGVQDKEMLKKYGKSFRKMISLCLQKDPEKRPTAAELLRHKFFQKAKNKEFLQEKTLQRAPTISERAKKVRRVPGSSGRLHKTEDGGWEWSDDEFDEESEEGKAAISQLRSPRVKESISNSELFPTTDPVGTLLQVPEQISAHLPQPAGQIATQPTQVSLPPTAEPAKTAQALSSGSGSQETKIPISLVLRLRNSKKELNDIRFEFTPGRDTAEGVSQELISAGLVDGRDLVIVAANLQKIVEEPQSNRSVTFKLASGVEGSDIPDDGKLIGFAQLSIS
Chain of UniProt P36897 (whole entry, looked up): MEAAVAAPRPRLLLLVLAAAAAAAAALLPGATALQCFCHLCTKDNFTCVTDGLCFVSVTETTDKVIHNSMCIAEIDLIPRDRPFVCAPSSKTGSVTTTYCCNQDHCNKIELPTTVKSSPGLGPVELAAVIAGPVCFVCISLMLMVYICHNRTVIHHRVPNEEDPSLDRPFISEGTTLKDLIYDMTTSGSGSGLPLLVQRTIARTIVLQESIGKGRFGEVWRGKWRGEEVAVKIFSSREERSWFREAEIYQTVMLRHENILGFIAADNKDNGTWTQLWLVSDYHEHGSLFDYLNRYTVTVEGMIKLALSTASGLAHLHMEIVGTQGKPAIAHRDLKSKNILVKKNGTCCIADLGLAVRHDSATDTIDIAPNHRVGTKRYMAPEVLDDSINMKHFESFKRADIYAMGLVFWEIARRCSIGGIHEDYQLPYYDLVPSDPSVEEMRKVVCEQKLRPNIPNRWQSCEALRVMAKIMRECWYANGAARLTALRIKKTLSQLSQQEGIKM
Chain of UniProt Q16539 (whole entry, looked up): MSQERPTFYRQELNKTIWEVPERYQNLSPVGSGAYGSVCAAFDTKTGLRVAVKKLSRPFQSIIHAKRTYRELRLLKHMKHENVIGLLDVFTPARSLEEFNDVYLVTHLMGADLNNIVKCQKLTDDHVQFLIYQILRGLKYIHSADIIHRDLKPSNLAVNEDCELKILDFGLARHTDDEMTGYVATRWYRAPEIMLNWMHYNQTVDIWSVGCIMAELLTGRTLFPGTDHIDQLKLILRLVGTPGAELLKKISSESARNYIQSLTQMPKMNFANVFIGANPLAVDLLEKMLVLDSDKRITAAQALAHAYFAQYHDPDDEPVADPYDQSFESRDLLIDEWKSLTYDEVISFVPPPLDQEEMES
Chain of UniProt Q96D53 (whole entry, looked up): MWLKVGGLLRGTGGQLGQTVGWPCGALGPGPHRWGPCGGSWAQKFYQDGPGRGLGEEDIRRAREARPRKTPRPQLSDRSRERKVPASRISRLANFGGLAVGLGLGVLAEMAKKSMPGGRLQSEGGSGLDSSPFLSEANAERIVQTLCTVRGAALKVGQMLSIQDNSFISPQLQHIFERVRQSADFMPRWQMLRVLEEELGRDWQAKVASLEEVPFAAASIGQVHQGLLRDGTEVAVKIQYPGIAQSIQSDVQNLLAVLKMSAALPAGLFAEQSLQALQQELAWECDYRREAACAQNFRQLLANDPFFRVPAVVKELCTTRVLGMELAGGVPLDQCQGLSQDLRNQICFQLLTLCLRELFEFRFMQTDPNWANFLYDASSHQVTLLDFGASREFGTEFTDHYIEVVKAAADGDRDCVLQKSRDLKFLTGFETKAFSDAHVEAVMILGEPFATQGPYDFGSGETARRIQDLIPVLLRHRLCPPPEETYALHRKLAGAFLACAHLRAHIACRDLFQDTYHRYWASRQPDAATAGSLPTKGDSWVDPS
Chain of UniProt Q06187 (whole entry, looked up): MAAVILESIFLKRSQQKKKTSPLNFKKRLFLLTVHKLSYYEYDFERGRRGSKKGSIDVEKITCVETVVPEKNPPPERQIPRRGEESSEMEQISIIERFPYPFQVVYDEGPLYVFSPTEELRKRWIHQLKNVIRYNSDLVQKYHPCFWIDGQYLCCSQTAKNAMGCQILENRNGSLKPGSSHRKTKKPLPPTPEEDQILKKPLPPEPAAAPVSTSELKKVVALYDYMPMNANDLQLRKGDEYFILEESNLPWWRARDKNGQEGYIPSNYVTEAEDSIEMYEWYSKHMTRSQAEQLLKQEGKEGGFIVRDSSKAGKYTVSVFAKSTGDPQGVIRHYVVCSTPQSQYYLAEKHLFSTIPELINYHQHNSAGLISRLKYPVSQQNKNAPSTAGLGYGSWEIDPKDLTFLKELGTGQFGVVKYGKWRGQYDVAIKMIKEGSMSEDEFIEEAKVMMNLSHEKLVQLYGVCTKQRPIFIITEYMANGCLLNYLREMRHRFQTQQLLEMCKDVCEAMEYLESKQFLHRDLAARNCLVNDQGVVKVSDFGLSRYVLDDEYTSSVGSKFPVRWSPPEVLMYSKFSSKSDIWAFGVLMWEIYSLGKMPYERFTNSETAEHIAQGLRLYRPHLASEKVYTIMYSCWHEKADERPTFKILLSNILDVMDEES
Chain of UniProt Q00526 (whole entry, looked up): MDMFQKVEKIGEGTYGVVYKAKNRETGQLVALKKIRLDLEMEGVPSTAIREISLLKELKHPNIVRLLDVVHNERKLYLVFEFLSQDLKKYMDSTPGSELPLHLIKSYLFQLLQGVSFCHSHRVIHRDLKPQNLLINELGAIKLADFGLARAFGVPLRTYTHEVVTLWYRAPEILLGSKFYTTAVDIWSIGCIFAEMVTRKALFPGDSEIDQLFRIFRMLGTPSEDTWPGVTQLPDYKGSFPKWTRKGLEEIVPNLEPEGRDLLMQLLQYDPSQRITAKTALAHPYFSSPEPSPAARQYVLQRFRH

Study 1
Cell line: HaCaT
Concentration: 100 µM
Time: 36 h
| SMILES | viability |
| --- | --- |
| CCN(CC)CCc1nc(-c2ccccc2)no1 | 89.9% |
| OCc1ccccc1 | 73.5% |
| CCCC(=O)O[C@]1(C(=O)CO)CC[C@H]2[C@@H]3CCC4=CC(=O)CC[C@]4(C)[C@H]3[C@@H](O)C[C@@]21C | 74.5% |
| NC(=O)N1c2ccccc2CCc2ccccc21 | 91.5% |
| CCc1nc(N)nc(N)c1-c1ccc(Cl)cc1 | 53.4% |
| CC(=O)Nc1ncc([N+](=O)[O-])s1 | 112% |

Study 2
Cell line: 1205Lu melanoma
| Compound | IC50 [µM] |
| --- | --- |
| CN1CCN(CCCN2c3ccccc3Sc3ccc(C(F)(F)F)cc32)CC1 | 9.8 |
| CCCCCCCCNC(C)C(O)c1ccc(SC(C)C)cc1 (stereo not drawn) | 5.3 |
| OCCN1CCN(CCC=C2c3ccccc3Sc3ccc(C(F)(F)F)cc32)CC1 | 7.7 |
| OC1(c2ccc(Cl)c(C(F)(F)F)c2)CCN(CCCC(c2ccc(F)cc2)c2ccc(F)cc2)CC1 | 5.2 |
| CC(NCCC(c1ccccc1)c1ccccc1)c1ccccc1 (stereo not drawn) | 9.5 |
| CNCCCC1c2ccccc2C=Cc2ccccc21 | 18.7 |
| Fc1ccc([C@@H]2CCNC[C@H]2COc2ccc3c(c2)OCO3)cc1 | 8 |

Study 3
SMILES: CCC(=O)Nc1ccc2ncnc(Nc3cccc(Br)c3)c2c1
Effect on: enzyme activity
Action: inhibitor
Concentration: 0.5 µM
Relative to: control
| target | remaining activity |
| --- | --- |
| Serine/threonine-protein kinase OSR1 (OXSR1, Homo sapiens, UniProt O95747) | 107% |
| Serine/threonine-protein kinase Chk2 (CHEK2, Homo sapiens, UniProt O96017) | 87.1% |
| Serine/threonine-protein kinase Nek2 (NEK2, Homo sapiens, UniProt P51955) | 87.5% |
| Cyclin-dependent kinase 5, with p25 (CDK5, Homo sapiens, UniProt Q00535) | 78.4% |
| Death-associated protein kinase 1 (DAPK1, Homo sapiens, UniProt P53355) | 99.4% |
| Tyrosine-protein kinase Lyn, isoform B (LYN, Homo sapiens, UniProt P07948) | 87.7% |
| TGF-beta receptor type-1 (TGFBR1, Homo sapiens, UniProt P36897) | 101% |
| Calcium/calmodulin-dependent protein kinase type II subunit delta (CAMK2D, Homo sapiens, UniProt Q13557) | 113% |

Study 4
Compound: C[C@@]1(Cc2ccc(C#N)cc2)C(=O)N(c2cc(Cl)cc(Cl)c2)c2ncc(C(=O)NC3(c4nc(C5CCC5)no4)CC3)n21
Method: competition with immobilised ligand
Concentration: 1 µM
| target | effect on | remaining binding [%] |
| --- | --- | --- |
| Mitogen-activated protein kinase 14 (MAPK14, Homo sapiens, UniProt Q16539) | cell-free assay | 100 |
| Phosphatidylinositol 4,5-bisphosphate 3-kinase catalytic subunit alpha isoform (PIK3CA, Homo sapiens, UniProt P42336, C420R) | cell-free assay | 89 |
| Tyrosine-protein kinase ABL1, phosphorylated (ABL1, Homo sapiens, UniProt P00519, E255K) | binding | 95 |
| Tyrosine-protein kinase ITK/TSK (ITK, Homo sapiens, UniProt Q08881) | cell-free assay | 92 |
| Tyrosine-protein kinase ABL1, phosphorylated (ABL1, Homo sapiens, UniProt P00519, F317L) | cell-free assay | 86 |
| Misshapen-like kinase 1 (MINK1, Homo sapiens, UniProt Q8N4C8) | cell-free assay | 100 |
| Ribosomal protein S6 kinase alpha-1, N-terminal kinase domain (RPS6KA1, Homo sapiens, UniProt Q15418) | cell-free assay | 100 |
| Dual specificity mitogen-activated protein kinase kinase 5 (MAP2K5, Homo sapiens, UniProt Q13163) | cell-free assay | 100 |
| TGF-beta receptor type-2 (TGFBR2, Homo sapiens, UniProt P37173) | cell-free assay | 99 |
| NUAK family SNF1-like kinase 2 (NUAK2, Homo sapiens, UniProt Q9H093) | cell-free assay | 100 |
| Cyclin-dependent kinase 3 (CDK3, Homo sapiens, UniProt Q00526) | cell-free assay | 100 |
| Proto-oncogene tyrosine-protein kinase receptor Ret (RET, Homo sapiens, UniProt P07949, V804L) | cell-free assay | 100 |
| Dual specificity mitogen-activated protein kinase kinase 3 (MAP2K3, Homo sapiens, UniProt P46734) | cell-free assay | 89 |
| Testis-specific serine/threonine-protein kinase 1 (TSSK1B, Homo sapiens, UniProt Q9BXA7) | cell-free assay | 76 |
| Tyrosine-protein kinase BTK (BTK, Homo sapiens, UniProt Q06187) | cell-free assay | 100 |
| Tyrosine-protein kinase receptor Tie-1 (TIE1, Homo sapiens, UniProt P35590) | cell-free assay | 100 |
| Atypical kinase COQ8B, mitochondrial (COQ8B, Homo sapiens, UniProt Q96D53) | cell-free assay | 100 |
| Proto-oncogene tyrosine-protein kinase ROS (ROS1, Homo sapiens, UniProt P08922) | cell-free assay | 100 |
| RAC-gamma serine/threonine-protein kinase (AKT3, Homo sapiens, UniProt Q9Y243) | cell-free assay | 100 |
| Serine/threonine-protein kinase Nek9 (NEK9, Homo sapiens, UniProt Q8TD19) | cell-free assay | 86 |
| Tyrosine-protein kinase ABL1, phosphorylated (ABL1, Homo sapiens, UniProt P00519, T315I) | cell-free assay | 100 |
